{"data": "Results from different studies", "TMPRSS2": "Transmembrane protease serine 2 (TMPRSS2, Homo sapiens, UniProt O15393)", "CTSL": "Procathepsin L (CTSL, Homo sapiens, UniProt P07711)", "note": "Protocols differ between the studies behind these lines.", "UniProt P07711, sequence (whole entry, looked up)": "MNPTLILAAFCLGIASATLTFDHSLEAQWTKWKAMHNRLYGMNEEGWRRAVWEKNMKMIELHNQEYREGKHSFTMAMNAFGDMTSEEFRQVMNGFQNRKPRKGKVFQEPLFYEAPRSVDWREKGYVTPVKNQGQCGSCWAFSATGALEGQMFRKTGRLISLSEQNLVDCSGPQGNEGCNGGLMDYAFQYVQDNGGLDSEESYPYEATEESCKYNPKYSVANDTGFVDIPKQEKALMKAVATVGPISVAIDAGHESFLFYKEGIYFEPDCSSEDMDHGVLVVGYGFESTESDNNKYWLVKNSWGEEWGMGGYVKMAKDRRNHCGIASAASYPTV", "UniProt O15393, sequence (whole entry, looked up)": "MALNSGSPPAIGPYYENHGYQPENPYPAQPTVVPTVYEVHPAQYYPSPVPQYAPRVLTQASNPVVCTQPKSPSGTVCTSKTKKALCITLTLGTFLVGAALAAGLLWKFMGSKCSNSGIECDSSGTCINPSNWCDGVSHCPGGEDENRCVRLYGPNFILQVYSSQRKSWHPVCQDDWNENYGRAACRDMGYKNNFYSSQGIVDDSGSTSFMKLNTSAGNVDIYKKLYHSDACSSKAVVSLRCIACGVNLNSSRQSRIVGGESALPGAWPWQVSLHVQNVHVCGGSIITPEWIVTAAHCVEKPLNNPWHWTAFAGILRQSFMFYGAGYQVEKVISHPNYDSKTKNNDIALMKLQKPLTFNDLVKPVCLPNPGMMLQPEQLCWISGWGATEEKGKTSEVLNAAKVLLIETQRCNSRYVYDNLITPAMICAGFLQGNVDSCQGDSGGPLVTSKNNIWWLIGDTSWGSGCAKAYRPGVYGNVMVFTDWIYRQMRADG", "UniProt Q5S007, sequence (whole entry, looked up)": "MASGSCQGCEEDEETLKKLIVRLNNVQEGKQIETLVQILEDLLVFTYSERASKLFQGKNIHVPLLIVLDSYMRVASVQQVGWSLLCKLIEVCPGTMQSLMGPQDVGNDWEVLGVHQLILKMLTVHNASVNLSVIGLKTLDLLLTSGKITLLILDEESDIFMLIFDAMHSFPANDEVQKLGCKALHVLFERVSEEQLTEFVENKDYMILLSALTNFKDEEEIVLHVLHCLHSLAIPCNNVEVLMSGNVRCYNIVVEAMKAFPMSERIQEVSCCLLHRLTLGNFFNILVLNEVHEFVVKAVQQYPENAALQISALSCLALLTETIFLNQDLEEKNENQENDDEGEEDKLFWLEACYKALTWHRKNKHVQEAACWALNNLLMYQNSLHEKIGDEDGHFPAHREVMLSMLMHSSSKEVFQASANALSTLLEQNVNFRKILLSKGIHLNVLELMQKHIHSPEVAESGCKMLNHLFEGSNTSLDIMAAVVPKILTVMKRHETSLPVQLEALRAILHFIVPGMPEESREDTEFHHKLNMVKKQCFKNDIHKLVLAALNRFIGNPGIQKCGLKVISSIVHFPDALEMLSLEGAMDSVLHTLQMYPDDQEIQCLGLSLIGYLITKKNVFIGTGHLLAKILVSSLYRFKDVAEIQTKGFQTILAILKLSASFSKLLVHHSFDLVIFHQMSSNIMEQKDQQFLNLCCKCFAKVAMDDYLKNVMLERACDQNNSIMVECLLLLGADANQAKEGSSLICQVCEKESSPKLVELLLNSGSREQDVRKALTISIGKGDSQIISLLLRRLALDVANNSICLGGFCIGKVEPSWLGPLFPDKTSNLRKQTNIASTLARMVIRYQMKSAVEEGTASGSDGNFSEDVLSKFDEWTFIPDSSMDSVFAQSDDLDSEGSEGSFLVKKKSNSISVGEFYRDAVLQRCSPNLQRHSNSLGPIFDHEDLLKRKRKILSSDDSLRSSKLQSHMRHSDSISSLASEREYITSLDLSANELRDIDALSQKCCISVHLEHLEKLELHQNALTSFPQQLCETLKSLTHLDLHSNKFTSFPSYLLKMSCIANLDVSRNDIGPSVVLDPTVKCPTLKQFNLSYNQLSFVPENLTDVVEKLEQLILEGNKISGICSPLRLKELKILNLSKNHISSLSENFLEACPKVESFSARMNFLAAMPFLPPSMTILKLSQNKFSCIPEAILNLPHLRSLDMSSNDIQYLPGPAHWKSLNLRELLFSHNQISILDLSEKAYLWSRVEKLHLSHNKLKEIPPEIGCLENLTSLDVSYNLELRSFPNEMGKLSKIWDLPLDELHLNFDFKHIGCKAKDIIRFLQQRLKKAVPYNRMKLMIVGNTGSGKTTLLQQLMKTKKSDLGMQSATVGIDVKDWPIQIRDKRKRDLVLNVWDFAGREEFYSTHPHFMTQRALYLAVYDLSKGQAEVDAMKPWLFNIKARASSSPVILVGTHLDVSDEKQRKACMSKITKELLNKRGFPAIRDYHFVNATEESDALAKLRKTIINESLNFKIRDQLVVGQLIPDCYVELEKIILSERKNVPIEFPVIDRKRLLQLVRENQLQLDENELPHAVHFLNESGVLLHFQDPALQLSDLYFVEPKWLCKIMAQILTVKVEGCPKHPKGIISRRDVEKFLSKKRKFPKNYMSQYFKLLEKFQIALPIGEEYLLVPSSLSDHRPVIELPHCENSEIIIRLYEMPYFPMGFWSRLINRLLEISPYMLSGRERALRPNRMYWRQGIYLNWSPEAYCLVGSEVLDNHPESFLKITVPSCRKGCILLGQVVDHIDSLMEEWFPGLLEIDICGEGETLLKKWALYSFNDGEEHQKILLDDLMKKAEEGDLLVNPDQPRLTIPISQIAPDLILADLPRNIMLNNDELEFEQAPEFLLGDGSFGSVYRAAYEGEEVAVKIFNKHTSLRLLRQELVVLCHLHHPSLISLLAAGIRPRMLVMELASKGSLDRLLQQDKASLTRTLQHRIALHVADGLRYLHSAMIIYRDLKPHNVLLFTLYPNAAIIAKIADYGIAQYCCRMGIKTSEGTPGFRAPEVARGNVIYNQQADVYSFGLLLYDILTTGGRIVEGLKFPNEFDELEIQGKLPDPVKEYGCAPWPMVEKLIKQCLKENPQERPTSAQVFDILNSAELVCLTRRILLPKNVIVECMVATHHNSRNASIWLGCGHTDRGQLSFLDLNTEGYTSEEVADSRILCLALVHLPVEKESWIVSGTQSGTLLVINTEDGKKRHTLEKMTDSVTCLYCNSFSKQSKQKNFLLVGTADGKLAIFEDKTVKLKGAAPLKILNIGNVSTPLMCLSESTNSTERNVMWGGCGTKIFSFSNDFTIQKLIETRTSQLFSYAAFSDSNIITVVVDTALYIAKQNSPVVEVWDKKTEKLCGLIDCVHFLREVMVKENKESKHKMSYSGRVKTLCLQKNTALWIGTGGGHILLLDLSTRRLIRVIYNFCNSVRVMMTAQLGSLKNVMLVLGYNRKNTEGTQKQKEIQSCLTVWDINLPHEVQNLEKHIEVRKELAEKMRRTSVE", "UniProt P41144, sequence (whole entry, looked up)": "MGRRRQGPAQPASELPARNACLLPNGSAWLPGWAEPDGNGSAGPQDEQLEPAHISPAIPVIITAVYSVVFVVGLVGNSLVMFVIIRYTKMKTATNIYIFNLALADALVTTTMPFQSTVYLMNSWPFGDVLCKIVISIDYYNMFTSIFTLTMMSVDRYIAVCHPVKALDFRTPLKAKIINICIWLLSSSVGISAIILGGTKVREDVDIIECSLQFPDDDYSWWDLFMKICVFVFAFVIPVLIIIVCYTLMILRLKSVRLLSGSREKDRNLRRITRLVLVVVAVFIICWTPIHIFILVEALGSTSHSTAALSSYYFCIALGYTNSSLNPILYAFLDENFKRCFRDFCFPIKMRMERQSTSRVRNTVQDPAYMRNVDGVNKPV", "UniProt P21554, sequence (whole entry, looked up)": "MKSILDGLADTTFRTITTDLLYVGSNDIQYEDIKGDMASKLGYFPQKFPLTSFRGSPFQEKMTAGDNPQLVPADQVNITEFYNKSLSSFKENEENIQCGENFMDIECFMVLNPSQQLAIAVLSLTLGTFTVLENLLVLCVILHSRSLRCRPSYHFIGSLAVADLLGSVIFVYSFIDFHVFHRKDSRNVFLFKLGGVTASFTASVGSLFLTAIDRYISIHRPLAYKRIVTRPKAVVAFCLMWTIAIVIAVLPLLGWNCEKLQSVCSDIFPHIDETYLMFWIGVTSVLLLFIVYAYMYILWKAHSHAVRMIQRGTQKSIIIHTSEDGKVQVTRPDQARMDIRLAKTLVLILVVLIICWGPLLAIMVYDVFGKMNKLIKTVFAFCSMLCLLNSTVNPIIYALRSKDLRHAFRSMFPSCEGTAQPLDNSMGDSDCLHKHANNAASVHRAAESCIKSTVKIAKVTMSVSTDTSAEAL", "UniProt P49761, sequence (whole entry, looked up)": "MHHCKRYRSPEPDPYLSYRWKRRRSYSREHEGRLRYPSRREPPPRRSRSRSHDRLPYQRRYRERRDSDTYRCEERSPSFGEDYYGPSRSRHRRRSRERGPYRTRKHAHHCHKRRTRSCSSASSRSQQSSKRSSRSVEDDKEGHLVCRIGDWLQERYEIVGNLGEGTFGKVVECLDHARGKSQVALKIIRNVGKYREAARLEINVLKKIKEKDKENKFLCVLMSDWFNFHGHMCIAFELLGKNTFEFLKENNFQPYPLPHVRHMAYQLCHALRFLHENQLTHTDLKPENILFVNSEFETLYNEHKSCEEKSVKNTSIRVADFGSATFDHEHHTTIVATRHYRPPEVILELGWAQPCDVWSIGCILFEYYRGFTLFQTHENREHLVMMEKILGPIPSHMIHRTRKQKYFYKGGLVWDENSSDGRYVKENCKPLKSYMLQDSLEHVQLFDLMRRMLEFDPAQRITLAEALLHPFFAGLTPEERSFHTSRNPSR", "UniProt P47898, sequence (whole entry, looked up)": "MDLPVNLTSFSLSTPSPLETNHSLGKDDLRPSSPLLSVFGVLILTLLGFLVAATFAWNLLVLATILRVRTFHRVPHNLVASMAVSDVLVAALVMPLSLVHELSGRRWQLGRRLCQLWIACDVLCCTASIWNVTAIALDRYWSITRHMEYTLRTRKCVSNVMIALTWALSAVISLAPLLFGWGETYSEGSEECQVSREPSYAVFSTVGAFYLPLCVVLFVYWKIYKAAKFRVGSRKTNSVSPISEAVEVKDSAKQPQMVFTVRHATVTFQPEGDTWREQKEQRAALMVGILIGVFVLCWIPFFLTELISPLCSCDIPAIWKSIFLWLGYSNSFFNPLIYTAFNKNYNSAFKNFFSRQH"}
{"SMILES": "CCCCCCn1c(O)c(N=NC(=O)c2ccccc2)c2ccccc21", "tested on": "CNR1 (Homo sapiens, UniProt P21554)", "assay": "β-arrestin recruitment, agonist", "test system": "HEK293", "measurement": "Emax", "result": "~55%"}
{"SMILES": "c1cncc([C@@H]2CCCN2)c1", "tested on": "HTR5A (Homo sapiens, UniProt P47898)", "assay": "ligand displacement", "setting": "50 µM", "measurement": "inhibition", "result": "22.5%"}
{"SMILES": "Cc1nn(C)cc1-c1nc2c(N3CCN(Cc4ccc(Cl)cc4)CC3)c(Cl)cnc2[nH]1", "tested on": "LRRK2 (Homo sapiens, UniProt Q5S007)", "assay": "binding, competition with immobilised ligand", "setting": "1 µM", "measurement": "remaining binding", "result": "100%"}
{"SMILES": "CN(C)[C@@H](CCC(N)=O)C(=O)N[C@@H](Cc1ccccc1)C(=O)N[C@H](CCCNC(=N)N)C(=O)c1nc2ccccc2s1", "tested on": "TMPRSS2", "assay": "enzyme activity, inhibitor", "setting": "1 nM", "measurement": "activity vs control", "result": "59%"}
{"SMILES": "CCCn1c(O)nnc1SCC(=O)Nc1cc(C(F)(F)F)ccc1Cl", "tested on": "PFF0160c (Plasmodium falciparum, UniProt Q08210)", "assay": "enzyme activity, inhibitor, absorbance", "measurement": "IC50", "result": "624 nM"}
{"SMILES": "CC(C)(C)[C@H](NC(=O)[C@H](CCc1ccccc1)NC(=O)CCc1ccccc1)C(=O)N[C@@H](CCCNC(=N)N)C(=O)c1nc2ccccc2s1", "tested on": "TMPRSS2", "assay": "enzyme activity, inhibitor", "setting": "1 nM", "measurement": "activity vs control", "result": "100%"}
{"SMILES": "COC(=O)c1cc(-c2cccc(NC(=S)Nc3ccc(F)cc3F)c2)on1", "tested on": "Klebsiella pneumoniae", "assay": "microbial growth, broth dilution", "test system": "BAA1705", "measurement": "MIC", "result": "> 64 µg/mL"}
{"SMILES": "N=C(N)NCCC[C@@H](NC(=O)[C@H](CCC(N)=O)NC(=O)[C@H](Cc1cscn1)NC(=O)CCc1ccccc1)C(=O)c1nc2ccccc2s1", "tested on": "TMPRSS2", "assay": "enzyme activity, inhibitor", "setting": "1 nM", "measurement": "activity vs control", "result": "72%"}
{"SMILES": "CC(=O)C(=O)c1ccccc1", "tested on": "CTSL", "assay": "enzyme activity, inhibitor", "setting": "100 µM", "measurement": "remaining activity", "result": "66.3%"}
{"SMILES": "CC(=O)N[C@@H](CCC(N)=O)C(=O)N[C@@H](Cc1cscn1)C(=O)N[C@@H](CCCNC(=N)N)C(=O)c1nc2ccccc2s1", "tested on": "TMPRSS2", "assay": "enzyme activity, inhibitor", "setting": "1 nM", "measurement": "activity vs control", "result": "82%"}
{"SMILES": "O=C1CCCC2C3CCCN4CCCC(CN12)C34 (centres unmarked)", "tested on": "CTSL", "assay": "enzyme activity, inhibitor", "setting": "100 µM", "measurement": "remaining activity", "result": "107%"}
{"SMILES": "N=C(N)NCCC[C@H](N)C(=O)N[C@@H](CCC(N)=O)C(=O)N[C@@H](CC(=O)O)C(=O)N[C@H](CCCNC(=N)N)C(=O)c1nc2ccccc2s1", "tested on": "TMPRSS2", "assay": "enzyme activity, inhibitor", "setting": "1 nM", "measurement": "activity vs control", "result": "87%"}
{"SMILES": "[2H]c1c([2H])c([C@]2([2H])CCCN2C(=O)C(C)(C)Oc2ccc3cn[nH]c3c2)c([2H])c([2H])c1C([2H])([2H])[2H]", "tested on": "CLK3 (Homo sapiens, UniProt P49761)", "assay": "binding, competition with immobilised ligand", "setting": "1 µM", "measurement": "remaining binding", "result": "78%"}
{"SMILES": "CCOC(=O)c1nnn(-c2cccc(NC(=O)Nc3ccc(Cl)c(Cl)c3)c2)c1C", "tested on": "Mycobacteroides chelonae", "assay": "microbial growth, broth dilution", "test system": "ATCC35752", "setting": "48 h", "measurement": "MIC", "result": "> 64 µg/mL"}
{"SMILES": "Nc1ncc(-c2nc(N3CCOCC3)nc(N3CCOCC3)n2)c(C(F)F)n1", "tested on": "PIK3CB (Homo sapiens, UniProt P42338)", "assay": "binding, competition with immobilised ligand", "setting": "10 µM", "measurement": "remaining binding", "result": "0%"}
{"SMILES": "COc1ccccc1N1CCN(c2cccc(F)c2C#N)CC1", "tested on": "PFF0160c (Plasmodium falciparum, UniProt Q08210, E182D)", "assay": "enzyme activity, inhibitor, absorbance", "measurement": "IC50", "result": "> 10000 nM"}
{"SMILES": "CCc1ccc(N2C(=O)/C(=C3/C(=O)N(C)c4ccc(Cl)cc43)NC2=S)cc1", "tested on": "ACHE (Homo sapiens, UniProt P22303)", "assay": "enzyme activity, inhibitor, Ellman", "setting": "10 nM", "measurement": "inhibition", "result": "6%"}
{"SMILES": "CC[C@@H](C)[C@@H]1CN([C@@H](CC2CCCCC2)CN2CCC[C@H]2CN2CCNC[C@@H]2CO)CCN1CCC12CC3CC(CC(C3)C1)C2", "tested on": "OPRK1 (Cavia porcellus, UniProt P41144)", "assay": "ligand displacement, radioligand", "setting": "0.5 µM, pH 7.5", "measurement": "remaining binding", "result": "79.2%"}
{"SMILES": "CN1CCC[C@H]1c1cccnc1", "tested on": "HRH3 (Homo sapiens, UniProt Q9Y5N1)", "assay": "ligand displacement", "setting": "50 µM", "measurement": "inhibition", "result": "53.8%"}
{"SMILES": "CCN(CC)CCCC[C@H](NC(=O)[C@H](CC(C)C)NC(=O)[C@H](C)NC(=O)[C@H](Cc1ccccc1)NC(=O)c1ccc(C(C)(C)C)cc1)C(=O)N[C@@H](CO)C(=O)OC", "tested on": "EDNRA (Homo sapiens, UniProt P25101)", "assay": "ligand displacement, radioligand", "setting": "10 µM", "measurement": "remaining binding", "result": "112%"}
{"SMILES": "C[C@H](NC(=O)[C@H](CCC(N)=O)NC(=O)[C@H](CCCNC(=N)N)NS(C)(=O)=O)C(=O)N[C@H](CCCNC(=N)N)C(=O)c1nc2ccccc2s1", "tested on": "TMPRSS2", "assay": "enzyme activity, inhibitor", "setting": "1 nM", "measurement": "activity vs control", "result": "20%"}
{"SMILES": "C#Cc1n[nH]c2c(-c3cn([C@@H](C)c4ccccn4)c(=O)[nH]c3=O)cc(F)cc12", "tested on": "Cyclin-dependent kinase 1, with cyclin B (CDK1, Homo sapiens, UniProt P06493)", "assay": "enzyme activity, inhibitor", "setting": "0.1 µM", "measurement": "inhibition", "result": "4.4%"}
{"SMILES": "c1ccc2c(c1)sc1ccccc12", "tested on": "CTSL", "assay": "enzyme activity, inhibitor", "setting": "100 µM", "measurement": "remaining activity", "result": "86.3%"}
{"SMILES": "COc1ncccc1-c1cnn2ccc(N3CCN(C(=O)OC(C)C)CC3)nc12", "tested on": "COQ8A (Homo sapiens, UniProt Q8NI60)", "assay": "binding, competition with immobilised ligand", "setting": "1 µM", "measurement": "remaining binding", "result": "81%"}
{"SMILES": "C[C@@H](NC(=O)[C@H](CCC(N)=O)NC(=O)[C@@H](N)CCCNC(=N)N)C(=O)N[C@@H](CCCNC(=N)N)C(=O)c1nc2ccccc2s1", "tested on": "TMPRSS2", "assay": "enzyme activity, inhibitor", "setting": "1 nM", "measurement": "activity vs control", "result": "99%"}
{"SMILES": "CC(C)CC(=O)OC[C@H]1O[C@@](C#N)(c2ccc3c(N)ncnn23)[C@H](O)[C@@H]1O", "tested on": "CHRM2 (Homo sapiens, UniProt P08172)", "assay": "cell-free assay", "setting": "20 µM", "measurement": "inhibition", "result": "-6%"}
{"note": "Repeated from above:"}
{"SMILES": "N=C(N)NCCC[C@H](N)C(=O)N[C@@H](CCC(N)=O)C(=O)N[C@@H](CC(=O)O)C(=O)N[C@H](CCCNC(=N)N)C(=O)c1nc2ccccc2s1", "tested on": "TMPRSS2", "assay": "enzyme activity, inhibitor", "setting": "1 nM", "measurement": "activity vs control", "result": "87%"}
{"SMILES": "[2H]c1c([2H])c([C@]2([2H])CCCN2C(=O)C(C)(C)Oc2ccc3cn[nH]c3c2)c([2H])c([2H])c1C([2H])([2H])[2H]", "tested on": "CLK3 (Homo sapiens, UniProt P49761)", "assay": "binding, competition with immobilised ligand", "setting": "1 µM", "measurement": "remaining binding", "result": "78%"}
{"SMILES": "CCOC(=O)c1nnn(-c2cccc(NC(=O)Nc3ccc(Cl)c(Cl)c3)c2)c1C", "tested on": "Mycobacteroides chelonae", "assay": "microbial growth, broth dilution", "test system": "ATCC35752", "setting": "48 h", "measurement": "MIC", "result": "> 64 µg/mL"}
{"SMILES": "Nc1ncc(-c2nc(N3CCOCC3)nc(N3CCOCC3)n2)c(C(F)F)n1", "tested on": "PIK3CB (Homo sapiens, UniProt P42338)", "assay": "binding, competition with immobilised ligand", "setting": "10 µM", "measurement": "remaining binding", "result": "0%"}
